Assay results of several laboratories.
Lines come from different studies, so protocols differ.

Structure (SMILES) | test | system | setting | scale | measurement | result
[O-][S+]1CCc2nc(N3CCC(c4ncc(Cl)cn4)CC3)nc(NC3(CO)CCC3)c21 (centres unmarked) | item: gastrointestinal disorders | healthy male humans | 12 mg twice daily |  | adverse event incidence | 12.5%
N=c1c2c(-c3ccccc3)c(-c3ccccc3)n(Cc3ccccc3)c2ncn1[C@H]1CC[C@H](O)CC1 |  | cynomolgus monkey, male, urine | intravenous, 0.5 mg/kg, 0-144 h | reference: dose | unchanged drug excreted in urine | < 1%
CO[C@H]1C[C@@H]2CC[C@@H](C)[C@@](O)(O2)C(=O)C(=O)N2CCCC[C@H]2C(=O)O[C@H]([C@H](C)C[C@@H]2CC[C@@H](OC(=O)NCCOCCOCCOCCOCCOCCOCCOCCOCCC(=O)N3CCc4cc(Cn5nc(-c6ccc7oc(N)nc7c6)c6c(N)ncnc65)ccc4C3)[C@H](OC)C2)C[C@@H](O)[C@H](C)/C=C(\C)[C@@H](O)[C@@H](OC)C(=O)[C@H](C)C[C@H](C)/C=C/C=C/C=C/1C | phase 1 dose escalation | advanced solid tumour patients | intravenous, 8 mg weekly, any grade |  | any TEAE incidence | 100%
Nc1nc2cc(-c3ccc4ncc(C(=O)N5CCOCC5)n4c3)ccc2o1 |  | advanced solid tumour patients | dose not given | reference: patients | grade ≥3 ALT/AST elevation | 15%
C[C@@H](O)[C@@H]1NC(=O)[C@H](CCCCN)NC(=O)[C@@H](Cc2c[nH]c3ccccc23)NC(=O)[C@H](Cc2ccccc2)NC(=O)[C@@H](NC(=O)[C@H](N)Cc2ccccc2)CSSC[C@@H](C(=O)N[C@H](CO)[C@@H](C)O)NC1=O | population PK model | human, typical 75 kg | dose not given, weight exponent 1 fixed |  | peripheral volume of distribution | 16.1 L
C[C@@H]1OC(=O)NN=C1c1ccc(-c2ccc(F)cc2)c(C(F)(F)F)c1 | phase I trial, item: muscle spasms worst grade 1 | human patients | 5 mg loading then 0.25 mg daily |  | patients with adverse event | 100%
CCN1[C@@H](C(=O)NC23CCC(C(=O)O)(CC2)CC3)[C@H](c2cccc(Cl)c2F)[C@]2(C(=O)Nc3cc(Cl)ccc32)C12CCCCC2 |  | patients with advanced solid tumours | oral, 100 mg |  | anorexia incidence | 0%
COc1ncccc1-c1cnn2ccc(N3CCN(C(=O)OC(C)C)CC3)nc12 |  | mouse, SNL model, brain | oral, 60 mg/kg, 120 min |  | drug concentration | 52 µM
Cc1ncnc2c1ccn2[C@@H]1C[C@H](Oc2cc(C(F)F)c(F)c3c2CNCC3)[C@@H](O)[C@H]1O |  | patients | dose not given, grade ≥3 | reference: patients | Vomiting incidence | 0%
CC(C)[C@H](O)C(=O)N[C@H]1Cc2ccc3c(c2)[C@]2(C4=C(c5nc(CO)co5)N=C(O4)[C@H](C(C)(C)C)NC1=O)c1cc(F)ccc1N[C@@H]2O3 |  | NSG mice, female, MDA-MB-231-BrM2 xenograft, mammary fat pad | intravenous, 10 mg/kg, single MTD dose, together with: paclitaxel 40 mg/kg |  | Cmax | 2.05 µg/mL
COc1cc2c(Oc3ccc4[nH]c(C)cc4c3F)ccnc2cc1OCC1(N)CC1 |  | paediatric recurrent refractory sarcoma | concentration not given, whole group |  | grade 1 or 2 Nausea | 5.9%
COc1ccc2nc3cc(Cl)ccc3c(Nc3cc(CN4CCCC4)c(O)c(CN4CCCC4)c3)c2n1 |  | mouse, blood | intraperitoneal, 14 mg/kg |  | monocyte count | 0.2 10⁹/L
CC(C)(O)c1cc(Nc2cc(Oc3cn(C4CC4)nc3C3CCOCC3)ccn2)ccn1 | Asthenia | advanced cancer patients, grade 4 glioma expansion | oral, 50 mg twice daily, all causality any grade |  | treatment-emergent adverse events | 0%
Cc1ccc(F)c2cc(C(=O)N[C@@H]3CCC[C@H](N4CC[C@H](N(C)S(C)(=O)=O)C4)C3)[nH]c12 |  | CD1 mouse, plasma | oral, 100 mg/kg, 4 h |  | plasma concentration | 2.61 µg/mL

Repeated from above:
Structure (SMILES) | test | system | setting | scale | measurement | result
C[C@@H](O)[C@@H]1NC(=O)[C@H](CCCCN)NC(=O)[C@@H](Cc2c[nH]c3ccccc23)NC(=O)[C@H](Cc2ccccc2)NC(=O)[C@@H](NC(=O)[C@H](N)Cc2ccccc2)CSSC[C@@H](C(=O)N[C@H](CO)[C@@H](C)O)NC1=O | population PK model | human, typical 75 kg | dose not given, weight exponent 1 fixed |  | peripheral volume of distribution | 16.1 L
